# Measurements gathered from unrelated publications.
# Organism: Pseudomonas aeruginosa
Compound,test,system,conditions,MIC
CCn1c(-c2ccc(F)cc2)c(-c2ccc(F)cc2)n(CCOC)c1=[Se],broth microdilution,carbapenem-resistant BAA-2108,24 h,> 40 µM
CC(C)C[C@@H]1NC(=O)[C@@H](CC(C)C)NC(=O)[C@H](CCN)NC(=O)[C@@H](NC(=O)[C@H](CCN)NC(=O)[C@@H](NC(=O)CCOCCOCCOCCN=[N+]=[N-])[C@@H](C)O)CCNC(=O)[C@H]([C@@H](C)O)NC(=O)[C@H](CCN)NC(=O)[C@H](CCN)NC1=O,broth microdilution,"ATCC 10145, cation-adjusted Mueller-Hinton broth",,14 µM
CC[C@H](C)[C@H](NC(=O)[C@H](CCCCN)NC(=O)[C@@H](NC(=O)[C@@H](NC(=O)[C@H](CC(C)C)NC(=O)[C@H](CCCNC(=N)N)NC(=O)[C@@H](NC(=O)[C@H](CC(C)C)NC(=O)[C@H](CCCNC(=N)N)NC(=O)CNC(=O)[C@H](Cc1ccccc1)NC(=O)[C@@H](N)CCCNC(=N)N)[C@@H](C)CC)[C@@H](C)CC)C(C)C)C(=O)N[C@@H](C)C(=O)N[C@@H](CCCNC(=N)N)C(=O)N[C@@H](CCCNC(=N)N)C(=O)N[C@@H](C)C(=O)N[C@@H](Cc1c[nH]cn1)C(=O)N[C@@H](CCCNC(=N)N)C(=O)N[C@@H](C)C(=O)N[C@@H](CCCNC(=N)N)C(=O)N1CCC[C@H]1C(=O)N[C@@H](C)C(=O)N[C@H](C(=O)N[C@@H](CCCCN)C(=O)N[C@@H](C)C(=O)N[C@@H](C)C(=O)N[C@@H](CO)C(=O)N[C@@H](CC(N)=O)C(=O)N[C@H](C(=O)N[C@@H](C)C(=O)N[C@@H](CCC(=O)O)C(=O)N[C@@H](CC(C)C)C(=O)N[C@@H](C)C(=O)N[C@@H](Cc1c[nH]cn1)C(=O)NCC(=O)N[C@@H](CCC(=O)O)C(N)=O)C(C)C)C(C)C,"bacterial growth, broth microdilution",cation-adjusted Mueller Hinton broth,"18 h, 37 °C",≤ 0.062 µM
CC(C)C[C@H](NC(=O)[C@H](CCCCN)NC(=O)C1CCCC=CCCC(NC(=O)[C@H](CCCCN)NC(=O)[C@@H](N)CC(C)C)C(=O)N[C@@H](CCCCN)C(=O)N[C@@H](CC(C)C)C(=O)N[C@@H](CCCCN)C(=O)N2CCC[C@@H]2C(=O)NCC(=O)N[C@@H](CCCCN)C(=O)N[C@@H](CC(C)C)C(=O)N[C@@H](CCCCN)C(=O)N1)C(N)=O (stereo partly shown),broth microdilution,"ATCC 9027, Mueller-Hinton broth","18 h, 37 °C",8 µM
CCCCCCCC(=O)N[C@@H](CCN)C(=O)N[C@H](C(=O)N[C@@H](CCN)C(=O)N[C@H]1CCNC(=O)[C@H]([C@@H](C)O)NC(=O)[C@H](CCN)NC(=O)[C@H](CCN)NC(=O)[C@H](CCCc2ccccc2)NC(=O)[C@@H](Cc2ccccc2)NC(=O)[C@H](CCN)NC1=O)[C@@H](C)O,broth microdilution,"PAO1, colistin-susceptible",,< 0.125 µg/mL
CN[C@H](CC(C)C)C(=O)N[C@H]1C(=O)N[C@@H](CC(N)=O)C(=O)N[C@H]2C(=O)N[C@H]3C(=O)N[C@H](C(=O)N[C@H](C(=O)O)c4cc(O)cc(O)c4-c4cc3ccc4O)[C@H](O)c3ccc(c(Cl)c3)Oc3cc2cc(c3O[C@@H]2O[C@H](CO)[C@@H](O)[C@H](O)[C@H]2O[C@H]2C[C@](C)(NCc3ccc(OCc4cn(CC(=O)N[C@H](C(=O)N[C@@H](CCN)C(=O)N[C@H]5CCNC(=O)[C@H]([C@@H](C)O)NC(=O)[C@H](CCN)NC(=O)[C@H](CCN)NC(=O)[C@H](CC(C)C)NC(=O)[C@@H](CC(C)C)NC(=O)[C@H](CCN)NC5=O)[C@@H](C)O)nn4)c(OC)c3)[C@H](O)[C@H](C)O2)Oc2ccc(cc2Cl)[C@H]1O,broth microdilution,"ATCC 17978, cation-adjusted Mueller-Hinton broth",,12 µM
CCCCCCCC(=O)N[C@@H](CCN)C(=O)N[C@H](C(=O)N[C@@H](CCN)C(=O)N[C@H]1CCNC(=O)[C@H]([C@@H](C)O)NC(=O)[C@H](CCN)NC(=O)[C@H](CCN)NC(=O)[C@H](CC(C)C)NC(=O)[C@@H](Cc2ccc(Br)cc2)NC(=O)[C@H](CCN)NC1=O)[C@@H](C)O,broth microdilution,"PAO1, colistin-susceptible",,0.125 to 0.25 µg/mL
C#CCOc1ccc(CN[C@@]2(C)C[C@H](O[C@H]3[C@H](Oc4c5cc6cc4Oc4ccc(cc4Cl)[C@@H](O)[C@@H](NC(=O)[C@@H](CC(C)C)NC)C(=O)N[C@@H](CC(N)=O)C(=O)N[C@H]6C(=O)N[C@H]4C(=O)N[C@H](C(=O)N[C@H](C(=O)NCC(N)=O)c6cc(O)cc(O)c6-c6cc4ccc6O)[C@H](O)c4ccc(c(Cl)c4)O5)O[C@H](CO)[C@@H](O)[C@@H]3O)O[C@@H](C)[C@H]2O)cc1OC,broth microdilution,"ATCC 25922, cation-adjusted Mueller-Hinton broth",,38 µM
CC[C@H](C)[C@H](NC(=O)[C@@H](CCCNC(=N)N)NC(=O)[C@H](CCCNC(=N)N)NC(=O)[C@@H]1CCCN1C(=O)[C@@H]1CCCN1C(=O)[C@H](CCCNC(=N)N)NC(=O)[C@@H]1CCCN1C(=O)[C@H](CCCNC(=N)N)NC(=O)[C@@H]1CCCN1C(=O)[C@H](CC(C)C)NC(=O)[C@H](Cc1ccc(O)cc1)NC(=O)[C@H](Cc1ccccc1)NC(=O)[C@@H]1CCCN1C(=O)[C@H](CCCCN)NC(=O)[C@H](CC(=O)O)NC(=O)[C@@H](N)C(C)C)C(=O)N[C@@H](Cc1ccc(O)cc1)C(=O)N[C@@H](CC(N)=O)C(=O)N[C@H](CCCNC(=N)N)C(N)=O,broth microdilution,DSM 1117,"18 h, 37 °C, 25% MHB2",128 µg/mL
CN[C@@H]1[C@H](O)[C@H](NC)[C@H]2O[C@]3(O)[C@H](O[C@@H]2[C@H]1O)O[C@H](C)C[C@H]3NC(=O)Cc1ccccn1,"microbial growth, broth dilution",PAO1,,100 µg/mL
C#CCOc1ccc(CN[C@@]2(C)C[C@H](O[C@H]3[C@H](Oc4c5cc6cc4Oc4ccc(cc4Cl)[C@@H](O)[C@@H](NC(=O)[C@@H](CC(C)C)NC)C(=O)N[C@@H](CC(N)=O)C(=O)N[C@H]6C(=O)N[C@H]4C(=O)N[C@H](C(=O)N[C@H](C(=O)N[C@@H](CCCNC(=N)N)C(N)=O)c6cc(O)cc(O)c6-c6cc4ccc6O)[C@H](O)c4ccc(c(Cl)c4)O5)O[C@H](CO)[C@@H](O)[C@@H]3O)O[C@@H](C)[C@H]2O)cc1OC,broth microdilution,"ATCC 27736, cation-adjusted Mueller-Hinton broth",,72 µM
O=[N+]([O-])c1cc(Cl)c2cccnc2c1O,broth microdilution,,multidrug-resistant clinical isolate,16 µg/mL
CC[C@H](C)[C@H](NC(=O)[C@@H](CCCNC(=N)N)NC(=O)[C@H](CCCNC(=N)N)NC(=O)[C@H](CO)NC(=O)[C@H](Cc1c[nH]c2ccccc12)NC(=O)[C@H](CCCNC(=N)N)NC(=O)[C@@H]1CCCN1C(=O)[C@H](CCCNC(=N)N)NC(=O)[C@@H]1CCCN1C(=O)[C@H](CC(C)C)NC(=O)[C@H](Cc1ccc(O)cc1)NC(=O)[C@@H]1CCCN1C(=O)[C@@H]1CCCN1C(=O)[C@H](CCCCN)NC(=O)[C@H](CC(=O)O)NC(=O)[C@@H](N)C(C)C)C(=O)N[C@@H](Cc1ccc(O)cc1)C(=O)N[C@@H](CC(N)=O)C(=O)N[C@H](CCCNC(=N)N)C(N)=O,broth microdilution,DSM 1117,"18 h, 37 °C, 25% MHB2",128 µg/mL
CC[C@H](C)[C@H](NC(=O)[C@H](C)NC(=O)[C@@H](NC(=O)[C@H](CC(=O)O)NC(=O)[C@H](CCCCN)NC(=O)[C@H](CO)NC(=O)[C@@H](NC(=O)[C@H](CC(N)=O)NC(=O)[C@H](C)NC(=O)[C@@H](NC(=O)[C@H](CCC(=O)O)NC(=O)[C@H](CCCCN)NC(=O)[C@@H](NC(=O)[C@@H](NC(=O)[C@H](Cc1c[nH]cn1)NC(=O)[C@H](CCCCN)NC(=O)[C@@H](NC(=O)[C@H](CCCCN)NC(=O)[C@H](CCCCN)NC(=O)[C@@H](NC(=O)[C@H](CC(C)C)NC(=O)[C@H](CCCCN)NC(=O)[C@H](CC(N)=O)NC(=O)[C@H](Cc1ccccc1)NC(=O)[C@H](CCCNC(=N)N)NC(=O)[C@H](CCCCN)NC(=O)[C@H](CCCNC(=N)N)NC(=O)[C@H](Cc1ccccc1)NC(=O)CN)C(C)C)C(C)C)[C@@H](C)O)[C@@H](C)CC)[C@@H](C)O)C(C)C)C(C)C)C(=O)N[C@H](C(=O)N[C@@H](C)C(=O)NCC(=O)N[C@@H](CO)C(=O)NCC(=O)N[C@H](C(=O)N[C@@H](C)C(=O)N[C@H](C(=O)NCC(=O)N[C@@H](C)C(=O)N[C@@H](C)C(=O)N[C@@H](CCSC)C(N)=O)C(C)C)C(C)C)C(C)C,broth microdilution,"RKI 93/12, CAMHB with 10% mouse serum",150 mM NaCl,128 µg/mL
CC[C@H](C)[C@H](NC(=O)[C@@H](CCCNC(=N)N)NC(=O)[C@H](CCCNC(=N)N)NC(=O)[C@@H]1CCCN1C(=O)[C@@H]1CCCN1C(=O)[C@H](CCCNC(=N)N)NC(=O)[C@@H]1CCCN1C(=O)[C@H](CCCNC(=N)N)NC(=O)[C@@H]1CCCN1C(=O)[C@H](CC(C)C)NC(=O)[C@H](Cc1ccc(O)c([N+](=O)[O-])c1)NC(=O)[C@@H]1CCCN1C(=O)[C@@H]1CCCN1C(=O)[C@H](CCCCN)NC(=O)[C@H](CC(=O)O)NC(=O)[C@@H](N)C(C)C)C(=O)N[C@@H](Cc1ccc(O)cc1)C(=O)N[C@@H](CC(N)=O)C(=O)N[C@H](CCCNC(=N)N)C(N)=O,broth microdilution,DSM 1117,"18 h, 37 °C, 25% MHB2",> 128 µg/mL
CC(C)C[C@H](NC(=O)[C@H](CCCNC(=N)N)NC(=O)[C@H](C)NC(=O)[C@H](CC(C)C)NC(=O)[C@H](CCCNC(=N)N)NC(=O)[C@H](C)NC(=O)[C@H](CCCCN)NC(=O)[C@H](CC(C)C)NC(=O)[C@H](CCCNC(=N)N)NC(=O)[C@H](Cc1ccc(O)cc1)NC(=O)[C@H](CC(C)C)NC(=O)[C@H](CCCNC(=N)N)NC(=O)[C@H](C)NC(=O)[C@H](CCCNC(=N)N)NC(=O)[C@H](CC(C)C)NC(=O)[C@H](CCCCN)NC(=O)[C@H](C)NC(=O)[C@H](CC(C)C)NC(=O)[C@H](CCCNC(=N)N)NC(=O)[C@H](C)NC(=O)[C@@H](N)CCCCN)C(N)=O,,ATCC 27853,24 h,4 µM

# Excerpt of the above:
Compound,test,system,conditions,MIC
CN[C@H](CC(C)C)C(=O)N[C@H]1C(=O)N[C@@H](CC(N)=O)C(=O)N[C@H]2C(=O)N[C@H]3C(=O)N[C@H](C(=O)N[C@H](C(=O)O)c4cc(O)cc(O)c4-c4cc3ccc4O)[C@H](O)c3ccc(c(Cl)c3)Oc3cc2cc(c3O[C@@H]2O[C@H](CO)[C@@H](O)[C@H](O)[C@H]2O[C@H]2C[C@](C)(NCc3ccc(OCc4cn(CC(=O)N[C@H](C(=O)N[C@@H](CCN)C(=O)N[C@H]5CCNC(=O)[C@H]([C@@H](C)O)NC(=O)[C@H](CCN)NC(=O)[C@H](CCN)NC(=O)[C@H](CC(C)C)NC(=O)[C@@H](CC(C)C)NC(=O)[C@H](CCN)NC5=O)[C@@H](C)O)nn4)c(OC)c3)[C@H](O)[C@H](C)O2)Oc2ccc(cc2Cl)[C@H]1O,broth microdilution,"ATCC 17978, cation-adjusted Mueller-Hinton broth",,12 µM
CCCCCCCC(=O)N[C@@H](CCN)C(=O)N[C@H](C(=O)N[C@@H](CCN)C(=O)N[C@H]1CCNC(=O)[C@H]([C@@H](C)O)NC(=O)[C@H](CCN)NC(=O)[C@H](CCN)NC(=O)[C@H](CC(C)C)NC(=O)[C@@H](Cc2ccc(Br)cc2)NC(=O)[C@H](CCN)NC1=O)[C@@H](C)O,broth microdilution,"PAO1, colistin-susceptible",,0.125 to 0.25 µg/mL
